Experimental data from different studies.
Target: Serine/threonine-protein kinase RIO3 (RIOK3, Homo sapiens, UniProt O14730)

COc1c(Cl)cccc1Nc1c(-c2ccncc2C#C[C@@]2(C)CCCN2C(=O)/C=C/CN(C)C)[nH]c2c1C(=O)NCC2 has a remaining binding of 93% (binding, competition with immobilised ligand; 3 µM).
With CCN1CCN(Cc2ccc(C(=O)Nc3ccc(C)c(NCc4cnc5[nH]ccc5c4OC)c3)cc2C(F)(F)F)CC1 the remaining binding was 73% (binding, competition with immobilised ligand; 1 µM).
The remaining binding of Cc1cnc2nc1Nc1cccc(c1)COC/C=C/COCc1cc(ccc1OCCN1CCOCC1)N2 is reported as 100% (binding, competition with immobilised ligand; 0.1 µM).
COc1cc(Nc2nccc(-c3cnn4nc(OC)ccc34)n2)cc(C(F)(F)F)c1 gave a remaining binding of 100% (binding, competition with immobilised ligand; 1 µM).
C[C@]1(O)CCCN(c2nc(Nc3ccc(S(=O)(=O)N[C@H]4CC[C@H](CN5CCN(c6ccc(C7CCC(=O)NC7=O)cc6F)CC5)CC4)cc3)ncc2C(F)(F)F)C1 (stereo partly shown) gave a remaining binding of 1.2% (binding, competition with immobilised ligand; 1 µM).
C=CC(=O)N1CCCC(n2c(=O)c3ncccc3n(Cc3ccc(Oc4ccccc4)cc3)c2=O)C1 (stereo not shown) gave a remaining binding of 92% (cell-free assay, competition with immobilised ligand; 1 µM).
CC(C)=CC1OC(C)(C)C2C=C3C(=O)C(Cl)=CC(O)C3C3C(O)C4OC4C(=O)C132 (stereo not shown) has a remaining binding of 67% (cell-free assay, competition with immobilised ligand; 10 µM).
The remaining binding of Cc1ccc(-c2c(/C=C(\C#N)C(=O)NC(C)C)n(CCCO)c3ncnc(N)c23)cc1 is reported as 84% (cell-free assay, competition with immobilised ligand; 1 µM).
The remaining binding of CNC1C[S+]2CC[S+]3CC[S+](C1)[Ru-4]321([N]=C=S)[n]2c3ccc(OC)cc3c3c4c(c5cc(F)c[n+]1c5c32)C(=O)NC4=O (stereo not shown) is reported as 96% (KinomeScan; 0.1 µM; reference: untreated).
The remaining binding of COc1cc(Nc2nc(C)cc(-c3cnn4nc(OC)ccc34)n2)cc(C(F)(F)F)c1 is reported as 86% (binding, competition with immobilised ligand; 1 µM).
C=CC(=O)N1CCc2ccc(-n3c(=O)ccc4cnc5ccc(-c6cnn(C)c6)cc5c43)cc21 has a remaining binding of 92% (KINOMEscan; 1 µM; reference: DMSO control).
Nc1ncc2c(n1)-c1c([nH]c3ccc(C4=CCOCC4)cc13)CCC2 gave a remaining binding of 100% (binding, competition with immobilised ligand; 1 µM).
CNC(=O)C1CCN(c2cc(C)c(F)cc2NC(=O)c2ccc(-c3cc(O)ccc3C)c(C)c2)CC1 has a remaining binding of 100% (binding, competition with immobilised ligand; 1 µM).

Repeated from above:
The remaining binding of Cc1cnc2nc1Nc1cccc(c1)COC/C=C/COCc1cc(ccc1OCCN1CCOCC1)N2 is reported as 100% (binding, competition with immobilised ligand; 0.1 µM).
